Measurements gathered from unrelated publications.
Lines come from different studies, so protocols differ. Values joined by “and” are separate records of one study, mostly repeats; a detail may differ.
Target: Eukaryotic translation initiation factor 2-alpha kinase 3 (EIF2AK3, Homo sapiens, UniProt Q9NZJ5)
Residues used in one study (Q9NZJ5 30-1116): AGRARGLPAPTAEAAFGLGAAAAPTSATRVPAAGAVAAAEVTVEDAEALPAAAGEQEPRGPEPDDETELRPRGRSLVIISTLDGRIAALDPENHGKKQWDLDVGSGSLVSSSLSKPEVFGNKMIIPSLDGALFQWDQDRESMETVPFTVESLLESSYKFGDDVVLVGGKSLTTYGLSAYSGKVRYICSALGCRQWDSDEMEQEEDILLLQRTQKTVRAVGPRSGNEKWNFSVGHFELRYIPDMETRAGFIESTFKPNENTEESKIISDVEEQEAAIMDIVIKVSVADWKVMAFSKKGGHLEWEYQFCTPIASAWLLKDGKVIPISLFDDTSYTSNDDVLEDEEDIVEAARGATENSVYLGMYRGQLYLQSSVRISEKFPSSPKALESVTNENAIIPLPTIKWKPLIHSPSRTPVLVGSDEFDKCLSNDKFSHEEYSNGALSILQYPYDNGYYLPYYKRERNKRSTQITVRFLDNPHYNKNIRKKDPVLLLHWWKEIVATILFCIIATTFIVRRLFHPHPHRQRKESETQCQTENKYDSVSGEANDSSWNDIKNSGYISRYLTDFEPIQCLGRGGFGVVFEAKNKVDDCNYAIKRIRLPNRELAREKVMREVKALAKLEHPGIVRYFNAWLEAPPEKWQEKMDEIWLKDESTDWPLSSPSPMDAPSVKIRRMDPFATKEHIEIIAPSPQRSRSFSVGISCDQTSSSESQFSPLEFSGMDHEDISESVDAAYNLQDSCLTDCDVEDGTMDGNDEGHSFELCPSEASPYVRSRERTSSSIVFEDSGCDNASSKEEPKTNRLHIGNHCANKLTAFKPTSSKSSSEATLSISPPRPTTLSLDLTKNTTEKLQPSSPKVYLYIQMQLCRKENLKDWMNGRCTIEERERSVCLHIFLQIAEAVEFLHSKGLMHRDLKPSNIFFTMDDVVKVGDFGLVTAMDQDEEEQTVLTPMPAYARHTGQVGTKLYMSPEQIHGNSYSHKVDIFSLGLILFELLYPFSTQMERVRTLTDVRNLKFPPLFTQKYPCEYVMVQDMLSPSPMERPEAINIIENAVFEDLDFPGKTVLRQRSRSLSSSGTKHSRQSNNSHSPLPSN

| assay | test system | setting | scale | quantity | value | Structure (SMILES) |
| --- | --- | --- | --- | --- | --- | --- |
| kinase activity | – | 0.1 µM | – | inhibition | 12% and -3% | C=CC(=O)Nc1cccc(-c2cnc3[nH]cc(C(=O)NC(C)(C)C)c3n2)c1 |
| kinase activity, KinaseProfiler | – | 0.03 µM, species human | baseline: control | remaining activity | 98% | COc1ccc(NC(=O)Nc2ccc3c(c2)C(=O)N(C(C)CO)CC(C)C(CN(C)Cc2ccc4c(c2)OCO4)O3)cc1 (centres unmarked) |
| binding, competition with immobilised ligand | – | 0.2 µM | – | inhibition | 6.39% | COc1ccc(O)cc1-c1c[nH]c2ncc(-c3cncc(C(=O)N(C)C)c3)cc12 |
| enzyme activity, inhibitor | – | 1 µM | – | inhibition | 0% | CN1CC[C@@H](COc2cnc(C#N)cc2-c2ccn3nc(NC(=O)C4CC4)cc3c2)C1 |
| enzyme activity, inhibitor | – | 0.5 µM | – | inhibition | 14% | O=C(Nc1ccc(Oc2ncnc3[nH]cc(-c4ccccc4)c23)c(F)c1)c1c2n(n(-c3cc(F)ccc3F)c1=O)CCCC2 |
| enzyme activity, inhibitor | – | 1 µM | – | inhibition | 14% | Cc1nc2c(F)cc(-c3nc(Nc4ccc(CNC(=O)CCCCCCC(=O)NO)cc4)ncc3F)cc2n1C(C)C |
| kinase activity | – | 0.1 µM, added: ATP at Km | – | inhibition | -1.1% | CCn1cc(C(=O)O)c(=O)c2c(N)c(F)c(NC3CCCCC3)cc21 |
| enzyme activity, inhibitor | – | 10 µM | – | inhibition | -13% | Cc1cccc(O[C@H]2CCC[C@@H](C(C)CNCc3ccncc3)C2)c1 (relative stereo) |
| enzyme activity, inhibitor | – | 10 µM | – | activity vs control | 105% | O=C(Cc1ccc(OCc2ccccc2)cc1)NC1(C(=O)O)CCN(C(=O)c2ccc(-c3cccc(Cl)c3)cc2)CC1 |
| probe labelling, inhibitor, KiNativ chemoproteomics | MOLT-4 | 1 µM | – | inhibition | 14.3% | CS(=O)(=O)Nc1cccc(-c2csc3cnc(Nc4ccc(N5CCN(CCCCCOc6cccc7c6C(=O)N(C6CCC(=O)NC6=O)C7=O)CC5)cc4)nc23)c1 (centres unmarked) |
| kinase activity, inhibitor, ProQinase kinase profiling | – | 25 µM | baseline: control | remaining activity | 105% | COCC12C(=O)NC3C4(C(OC)CC1O)C1CC5(O)C(OC)C(O)C(OC(C)=O)(C1C5OC(=O)c1ccccc1)C3(O)C(OC)C24 (centres unmarked) |

Some of these lines once more:
| assay | test system | setting | scale | quantity | value | Structure (SMILES) |
| --- | --- | --- | --- | --- | --- | --- |
| kinase activity | – | 0.1 µM, added: ATP at Km | – | inhibition | -1.1% | CCn1cc(C(=O)O)c(=O)c2c(N)c(F)c(NC3CCCCC3)cc21 |
| enzyme activity, inhibitor | – | 10 µM | – | inhibition | -13% | Cc1cccc(O[C@H]2CCC[C@@H](C(C)CNCc3ccncc3)C2)c1 (relative stereo) |
